Published values from different studies.
Protocols differ between the studies behind these lines. ± gives the spread as reported.
SLC6A4: Sodium-dependent serotonin transporter (SLC6A4, Homo sapiens, UniProt P31645)
Sequence of UniProt P31645 (whole entry, looked up): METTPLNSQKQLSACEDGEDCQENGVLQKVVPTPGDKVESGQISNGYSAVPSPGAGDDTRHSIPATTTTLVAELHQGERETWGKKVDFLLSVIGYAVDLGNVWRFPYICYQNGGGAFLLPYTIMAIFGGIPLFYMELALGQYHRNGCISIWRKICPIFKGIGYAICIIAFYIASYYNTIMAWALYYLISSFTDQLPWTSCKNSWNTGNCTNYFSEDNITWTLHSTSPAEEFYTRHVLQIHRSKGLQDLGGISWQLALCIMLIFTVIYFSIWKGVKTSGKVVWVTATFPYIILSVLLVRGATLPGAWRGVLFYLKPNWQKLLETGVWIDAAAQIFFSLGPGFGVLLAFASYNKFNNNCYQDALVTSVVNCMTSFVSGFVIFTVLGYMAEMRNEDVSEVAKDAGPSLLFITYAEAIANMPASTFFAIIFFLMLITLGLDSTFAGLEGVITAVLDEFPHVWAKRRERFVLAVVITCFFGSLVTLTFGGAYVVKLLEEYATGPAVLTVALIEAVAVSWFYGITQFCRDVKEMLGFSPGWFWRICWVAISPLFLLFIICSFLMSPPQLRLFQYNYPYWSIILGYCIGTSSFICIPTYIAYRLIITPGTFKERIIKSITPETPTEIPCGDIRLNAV
Slc6a3: Sodium-dependent dopamine transporter (Slc6a3, Rattus norvegicus, UniProt P23977)
Sequence of UniProt P23977 (whole entry, looked up): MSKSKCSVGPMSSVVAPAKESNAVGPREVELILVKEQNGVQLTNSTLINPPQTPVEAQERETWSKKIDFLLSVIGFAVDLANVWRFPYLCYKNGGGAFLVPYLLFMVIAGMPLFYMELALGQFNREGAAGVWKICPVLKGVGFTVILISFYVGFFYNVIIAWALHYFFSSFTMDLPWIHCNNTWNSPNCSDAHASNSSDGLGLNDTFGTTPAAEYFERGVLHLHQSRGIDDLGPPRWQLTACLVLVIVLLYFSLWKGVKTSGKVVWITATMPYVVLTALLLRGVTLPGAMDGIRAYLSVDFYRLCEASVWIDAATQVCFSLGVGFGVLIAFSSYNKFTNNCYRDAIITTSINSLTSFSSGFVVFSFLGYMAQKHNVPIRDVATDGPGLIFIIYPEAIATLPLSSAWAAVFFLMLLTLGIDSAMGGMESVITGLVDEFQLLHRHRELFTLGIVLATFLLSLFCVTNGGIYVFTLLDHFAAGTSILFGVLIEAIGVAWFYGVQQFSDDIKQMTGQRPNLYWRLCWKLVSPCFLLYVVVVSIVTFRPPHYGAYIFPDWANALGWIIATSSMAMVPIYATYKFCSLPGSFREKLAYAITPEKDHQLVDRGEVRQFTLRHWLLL
Sequence of UniProt P18508 (whole entry, looked up): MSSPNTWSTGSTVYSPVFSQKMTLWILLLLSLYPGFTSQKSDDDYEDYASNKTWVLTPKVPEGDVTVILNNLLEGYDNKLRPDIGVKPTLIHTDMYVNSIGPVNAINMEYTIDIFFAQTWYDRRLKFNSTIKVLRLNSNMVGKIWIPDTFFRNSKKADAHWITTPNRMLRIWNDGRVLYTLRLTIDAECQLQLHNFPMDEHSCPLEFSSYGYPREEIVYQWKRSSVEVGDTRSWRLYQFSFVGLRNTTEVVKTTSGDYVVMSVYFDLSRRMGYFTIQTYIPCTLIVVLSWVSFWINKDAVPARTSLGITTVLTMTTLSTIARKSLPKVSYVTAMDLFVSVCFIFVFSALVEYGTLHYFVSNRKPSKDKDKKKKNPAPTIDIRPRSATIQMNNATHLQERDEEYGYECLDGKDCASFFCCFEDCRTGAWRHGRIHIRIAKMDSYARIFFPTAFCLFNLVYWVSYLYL
Sequence of UniProt P62813 (whole entry, looked up): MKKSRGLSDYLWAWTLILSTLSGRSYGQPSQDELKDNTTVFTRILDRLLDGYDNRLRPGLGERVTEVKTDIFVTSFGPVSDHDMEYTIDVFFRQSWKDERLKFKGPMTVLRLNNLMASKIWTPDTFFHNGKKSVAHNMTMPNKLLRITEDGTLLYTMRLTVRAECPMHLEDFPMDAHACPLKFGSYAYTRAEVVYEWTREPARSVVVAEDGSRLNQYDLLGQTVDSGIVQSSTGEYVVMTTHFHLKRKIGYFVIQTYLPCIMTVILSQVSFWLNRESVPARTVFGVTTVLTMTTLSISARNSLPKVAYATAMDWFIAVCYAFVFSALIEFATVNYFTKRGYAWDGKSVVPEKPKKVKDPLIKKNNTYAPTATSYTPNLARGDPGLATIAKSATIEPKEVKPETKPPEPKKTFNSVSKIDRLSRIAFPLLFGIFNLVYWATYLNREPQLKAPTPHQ
Sequence of UniProt P01116 (whole entry, looked up): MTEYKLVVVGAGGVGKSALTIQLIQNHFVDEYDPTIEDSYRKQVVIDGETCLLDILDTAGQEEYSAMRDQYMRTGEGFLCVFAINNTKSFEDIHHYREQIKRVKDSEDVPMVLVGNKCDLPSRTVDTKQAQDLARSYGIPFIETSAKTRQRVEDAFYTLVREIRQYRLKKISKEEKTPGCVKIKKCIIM
Sequence of UniProt P00374 (whole entry, looked up): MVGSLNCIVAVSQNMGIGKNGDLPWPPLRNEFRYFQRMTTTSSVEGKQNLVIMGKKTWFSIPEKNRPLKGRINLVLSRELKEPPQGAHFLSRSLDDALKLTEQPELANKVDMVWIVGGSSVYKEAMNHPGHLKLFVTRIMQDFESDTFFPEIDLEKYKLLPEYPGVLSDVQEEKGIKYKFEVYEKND
Sequence of UniProt Q05209 (whole entry, looked up): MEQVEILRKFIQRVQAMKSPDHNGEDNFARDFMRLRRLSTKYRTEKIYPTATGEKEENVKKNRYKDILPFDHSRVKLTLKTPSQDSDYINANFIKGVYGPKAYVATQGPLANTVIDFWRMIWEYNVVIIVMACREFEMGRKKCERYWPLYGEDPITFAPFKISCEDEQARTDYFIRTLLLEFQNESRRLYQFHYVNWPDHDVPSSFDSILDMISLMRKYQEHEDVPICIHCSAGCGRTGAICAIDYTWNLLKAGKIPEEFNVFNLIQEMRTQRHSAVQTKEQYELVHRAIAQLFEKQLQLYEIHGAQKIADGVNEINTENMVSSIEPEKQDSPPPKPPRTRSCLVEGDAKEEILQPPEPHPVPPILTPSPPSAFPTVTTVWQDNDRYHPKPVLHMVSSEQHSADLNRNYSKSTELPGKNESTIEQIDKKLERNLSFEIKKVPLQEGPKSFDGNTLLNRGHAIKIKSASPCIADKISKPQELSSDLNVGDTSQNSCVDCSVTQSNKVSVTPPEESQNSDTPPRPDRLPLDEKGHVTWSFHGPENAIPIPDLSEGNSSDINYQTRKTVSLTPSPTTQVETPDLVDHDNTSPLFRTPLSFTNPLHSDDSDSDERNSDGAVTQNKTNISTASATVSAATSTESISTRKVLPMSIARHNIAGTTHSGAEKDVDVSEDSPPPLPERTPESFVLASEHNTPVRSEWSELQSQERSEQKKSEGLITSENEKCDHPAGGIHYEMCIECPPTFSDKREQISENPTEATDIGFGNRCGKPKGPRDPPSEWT
Sequence of UniProt P51449 (whole entry, looked up): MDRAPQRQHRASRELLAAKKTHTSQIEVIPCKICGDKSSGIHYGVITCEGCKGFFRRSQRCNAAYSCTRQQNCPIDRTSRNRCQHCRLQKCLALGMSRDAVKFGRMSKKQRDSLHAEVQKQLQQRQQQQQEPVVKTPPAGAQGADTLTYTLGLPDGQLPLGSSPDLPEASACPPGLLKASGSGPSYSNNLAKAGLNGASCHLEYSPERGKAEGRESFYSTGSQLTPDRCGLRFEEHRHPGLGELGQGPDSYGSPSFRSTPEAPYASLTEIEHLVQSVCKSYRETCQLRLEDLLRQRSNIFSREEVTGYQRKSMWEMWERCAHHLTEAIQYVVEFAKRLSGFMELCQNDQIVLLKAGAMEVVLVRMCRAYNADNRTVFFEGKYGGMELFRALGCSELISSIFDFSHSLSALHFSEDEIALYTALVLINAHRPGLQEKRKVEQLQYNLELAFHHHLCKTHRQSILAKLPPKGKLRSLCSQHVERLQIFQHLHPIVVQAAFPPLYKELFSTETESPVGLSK
Sequence of UniProt P05177 (whole entry, looked up): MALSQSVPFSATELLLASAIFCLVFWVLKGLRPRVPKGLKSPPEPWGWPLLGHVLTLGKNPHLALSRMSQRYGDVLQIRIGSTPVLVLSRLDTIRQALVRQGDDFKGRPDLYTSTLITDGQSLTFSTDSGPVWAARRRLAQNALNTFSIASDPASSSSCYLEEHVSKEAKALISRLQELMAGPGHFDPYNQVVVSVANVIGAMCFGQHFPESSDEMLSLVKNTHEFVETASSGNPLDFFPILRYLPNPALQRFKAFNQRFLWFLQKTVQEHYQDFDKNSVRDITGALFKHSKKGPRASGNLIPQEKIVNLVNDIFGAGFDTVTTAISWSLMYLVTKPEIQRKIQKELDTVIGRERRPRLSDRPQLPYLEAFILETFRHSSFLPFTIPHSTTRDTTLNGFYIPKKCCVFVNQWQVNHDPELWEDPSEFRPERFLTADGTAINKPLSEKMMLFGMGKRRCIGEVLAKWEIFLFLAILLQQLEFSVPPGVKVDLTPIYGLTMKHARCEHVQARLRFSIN

For CCC[C@@H](C(=O)c1ccccc1)N1CCCC1, the IC50 was 207 µM (SLC6A4; transporter uptake, inhibitor, radiometric).
For NC1=NC2(CCCCC2)N(c2ccc(OCc3cn(CCCCOc4ccc5ccc(=O)oc5c4)nn3)cc2)C(N)=N1, the IC50 was 10.5 µM (DHFR (Homo sapiens, UniProt P00374); enzyme activity, inhibitor).
For O=C1CC(=O)N(c2ccccc2)c2cc(Cl)ccc2N1, the IC50 was 0.78 ± 0.15 µM (Gabrg2/Gabra1, with β2 subunit (Rattus norvegicus, UniProt P18508+P62813); binding, radioligand displacement; HEK293 cell membranes; together with: 1 nM [3H]flunitrazepam).
C[N+](C)(C)CCc1c[nH]c2cccc(O)c12 gave an IC50 of > 10 µM (Slc6a3; transporter uptake, inhibitor, radiometric).
Cc1ccccc1N1C(=O)/C(=C/c2ccc(OCc3cccc(C(=O)O)c3)cc2)C(=O)NC1=S gave an IC50 of > 100 µM (PTPN12 (Homo sapiens, UniProt Q05209); enzyme activity, inhibitor).
With Cc1[nH]c2cc(Cl)cc(Cl)c2c1CCN the IC50 was 1560 µM (GTPase KRas (KRAS, Homo sapiens, UniProt P01116); enzyme activity, inhibitor).
CCC[N+](C)(C)CCc1c[nH]c2cccc(O)c12 has an IC50 of > 10 µM (Slc6a3; transporter uptake, inhibitor, radiometric).
With Fc1ccccc1CCNCc1cccc(Cl)c1Cl the IC50 was > 20 µM (SLC6A4; transporter uptake, inhibitor, radiometric).
CCCCCc1cc(O)c2c(c1)OC(C)(C)C1CCC(C)=CC21 (single isomer, unassigned; (-)) gave an IC50 of 0.27 ± 0.11 µM (Cytochrome P450 1A2 (CYP1A2, Homo sapiens, UniProt P05177); inhibitor; human, pooled liver microsomes; pH 7.4, together with: phenacetin).
COc1ccccc1N1C(=O)/C(=C/c2cccn2-c2ccc(O)cc2)C(=O)NC1=S has an IC50 of 0.587 µM (RORC (Homo sapiens, UniProt P51449); reporter gene, inverse agonist, luciferase).

Excerpt of the above:
For O=C1CC(=O)N(c2ccccc2)c2cc(Cl)ccc2N1, the IC50 was 0.78 ± 0.15 µM (Gabrg2/Gabra1, with β2 subunit (Rattus norvegicus, UniProt P18508+P62813); binding, radioligand displacement; HEK293 cell membranes; together with: 1 nM [3H]flunitrazepam).
